# Measured values of several laboratories.
# Each line is one published result; not all experiments were run side by side. Values joined by “and” are separate records of one study, mostly repeats; a detail may differ. Numbers after ± are the reported error.
Molecule,test,test system,setting,scale,endpoint,result
"Ac-LRKLRKRLLRDWLKAFYDKVAEKLKEAF-NH2 (N-acetyl, C-amide)",,"peptide, APP/PS1ΔE9 mice, brain","intravenous, dose not given, 6 h, 14C-labeled",,brain concentration,163 ± 11 nM
FMEIET,"substrate, gel electrophoresis","peptide, mouse, PyMT tumour, PyMT tumour tissue extract","5 µM, 16 h, 37 °C, 2% extract, 1 mM ZnCl2",,peptide cleavage,< 5%
Cc1cccc(Nc2ccccc2C(=O)O)c1C,shake-flask,polysorbate 80,37 °C,,thermodynamic solubility,26.2 ± 0.65 mg/g
C[C@H](Cn1cnc2c(N)ncnc21)OCP(=O)(O)O,LC-MS/MS,"human, hair",dose not given,,hair concentration,0.0199 ng/mg and 0.0467 ng/mg and 0.0254 ng/mg and 0.0344 ng/mg and 0.0566 ng/mg and 0.0445 ng/mg
Cn1c(=O)c2c([nH]c(=O)n2C)n(C)c1=O,,"human hemodialysis patients, plasma",pre-treatment,baseline: hemodialysis over normal subjects,total plasma concentration ratio,3
O[C@H](C[C@H]1c2c(F)cccc2-c2cncn21)[C@H]1CC[C@H](O)CC1,,"human, faeces","oral, 200 mg, [14C] labelled",baseline: dose,radioactivity recovered in faeces,7.4% and 7.44%
CCN(c1cc(C#CCN2CCOCC2)cc(C(=O)NCc2c(C)cc(C)[nH]c2=O)c1C)[C@H]1CC[C@H](N(C)CCOC)CC1,,mouse liver microsomes,well-stirred model,,scaled intrinsic clearance,< 10 mL/min/kg
O=C(O)[C@H](c1ccccc1Cl)N1CCc2sccc2C1,HPLC-MS/MS,feline citrate plasma,"6 h, -20 °C, storage stability",,deviation from nominal,0%
Oc1c(Br)cc(Cl)c2cccnc12,,"male Sprague-Dawley rats, heart","intravenous, 5 mg/kg, 2 h",,concentration,15.6 ± 4.2 ng/g
CCCOc1ccc([C@H]2CNC(=O)N2c2ccc3[nH]cnc3c2)cc1,,"non-elderly adults, fasted, plasma","oral, 50 mg twice daily, day 11, 2 to 12 h postdose, oral solution, geometric mean",,effective half-life,2.62 h
CNc1nc(Nc2ccc(-n3cnc(C)n3)c(OC)c2)nc2c1CC[C@H]2c1ccc(F)cc1,,"human, plasma","oral, 50 mg, multiple doses, once daily",,Tmax,5 h
COC(=O)C[C@](O)(CCCC(C)(C)O)C(=O)O[C@@H]1C(OC)=C[C@]23CCCN2CCc2cc4c(cc2[C@H]13)OCO4,,"CD1 mice, esophagus","oral, 1 mg/kg, 2 h",,tissue concentration,not detected
Cc1ccco1,metabolic activation to acetaldehyde,"male Sprague-Dawley rats, pooled liver microsomes","10 min, low concentrations",,Km,11 µM
N[C@@H](CC(=O)N1CCn2c(nnc2C(F)(F)F)C1)Cc1cc(F)c(F)cc1F,,"healthy Korean subjects, plasma","oral, 100 mg single dose, ABCB1 C3435T CT+TT",,AUC(0-2 h),473 ± 195 ng·h/mL
CCOc1ccc(Cc2cc([C@]34OC[C@](CO)(O3)[C@@H](O)[C@H](O)[C@H]4O)ccc2Cl)cc1,,"human type 2 diabetes, normal renal function, urine","oral, 15 mg, 0-96 h",baseline: dose,urinary excretion unchanged,0.995%
COC(=O)c1ccc2c(c1)NC(=O)/C2=C(\Nc1ccc(N(C)C(=O)CN2CCN(C)CC2)cc1)c1ccccc1,,"human moderate liver impairment, plasma","oral, 150 mg twice daily, geometric mean",,Cmax steady state,143 ng/mL
C[C@H](Oc1ccc(-c2nc(-c3ccc4[nH]cnc4c3)no2)cc1C(F)(F)F)C(F)(F)F,,"cynomolgus monkey, aneurysm model, plasma","0.1 mg/kg once daily, 8 h post-dose, 12 months dosing",,plasma concentration,23 ± 1.8 nM
CC[C@H](C)[C@H](NC(=O)[C@H](CC(C)C)NC(=O)[C@H](Cc1c[nH]c2ccccc12)NC(=O)[C@H](C)NC(=O)[C@@H](NC(=O)[C@H](Cc1ccccc1)NC(=O)[C@H](CC(=O)O)NC(=O)[C@H](CCCNC(=N)N)NC(=O)[C@H](C)NC(=O)[C@H](C)NC(=O)[C@H](CC(C)C)NC(=O)[C@H](C)NC(=O)[C@H](CC(=O)O)NC(=O)[C@H](CC(C)C)NC(=O)[C@@H](NC(=O)[C@@H](NC(=O)[C@H](C)NC(=O)[C@H](CC(C)C)NC(=O)[C@H](CCC(=O)O)NC(=O)[C@H](CO)NC(=O)[C@H](CO)NC(=O)[C@H](Cc1ccccc1)NC(=O)[C@@H](NC(=O)CNC(=O)[C@H](CCC(=O)O)NC(=O)CNC(=O)[C@@H](N)Cc1cnc[nH]1)[C@@H](C)O)[C@@H](C)O)[C@@H](C)CC)[C@@H](C)CC)C(=O)N[C@@H](C)C(=O)N[C@H](C(=O)N[C@@H](CCCCN)C(=O)N[C@H](C(=O)N[C@H](C(=O)N[C@@H](CC(=O)O)C(=O)N[C@@H](CCCCN)C(=O)N[C@@H](CCCCN)C(=O)N[C@@H](CCCCN)C(=O)N[C@@H](CCCCN)C(=O)N[C@@H](CCCCN)C(=O)N[C@@H](CCCCN)C(N)=O)[C@@H](C)O)[C@@H](C)CC)[C@@H](C)O,immunoaffinity LC-MS/MS,"healthy human subjects, plasma","subcutaneous, 5 mg once weekly, day 36 after 6 doses, steady state, geometric mean",,AUClast,0.516 nM·h
NC(=O)c1cnc2[nH]ccc2c1N[C@@H]1[C@@H]2CC3C[C@H]1C[C@@](O)(C3)C2,,"Japanese, moderate hepatic impairment (Child-Pugh B), plasma","oral, 150 mg single dose, mean",,AUC(0-last),2320 ng·h/mL
O=C1Cc2cc(CCN3CCN(c4nsc5ccccc45)CC3)c(Cl)cc2N1,,"male Hartley guinea pig, anaesthetized","intravenous infusion, 0.3 mg/kg, 10 min infusion",baseline: baseline,QTc change,7 ± 1.9%
CCCS(=O)(=O)Nc1ccc(F)c(C(=O)c2c[nH]c3ncc(-c4ccc(Cl)cc4)cc23)c1F,,"human patients, urine and feces","oral, 960 mg, 18 days, steady state, radiolabelled",baseline: dose,radioactivity recovery,95% and ~95%
O=C(CCCN1CC=C(n2c(=O)[nH]c3ccccc32)CC1)c1ccc(F)cc1,,"male Hartley guinea pig, anaesthetized","intravenous infusion, 0.03 mg/kg, 10 min infusion",baseline: baseline,QTc change,2.1 ± 3.2%
C[C@H]1Oc2cc(cnc2N)-c2c(nn(C)c2C#N)CN(C)C(=O)c2ccc(F)cc21,,human (NSCLC and healthy),"oral and intravenous, PopPK, 70 kg subject",,initial clearance,151 mL/min
O=C1N=C(N2CCOCC2)CN1c1ccc(Cl)cc1,,"beagle dog, both sexes","oral, 30 mg/kg, day 5, tablets, after 4 days twice daily",,apparent volume of distribution (Vz/F),1.06 L/kg
CCCC[C@H](NC(C)=O)C(=O)N[C@H]1CCC(=O)NC[C@@H](C(=O)N[C@@H](Cc2c[nH]c3ccccc23)C(N)=O)NC(=O)[C@H](CCCNC(=N)N)NC(=O)[C@@H](Cc2ccccc2)NC(=O)[C@H](Cc2c[nH]cn2)NC1=O,,"healthy volunteers, both sexes, plasma","subcutaneous, 1.0 mg once daily, day 1",,median AUC(0-t),44.9 ng·h/mL
Cc1ncnc2c1c(Cl)cn2[C@@H]1O[C@H](CO)[C@@H](O)[C@H]1O,metabolic stability,"mouse, liver microsomes",0 h,,compound remaining,100%
O=C(CCc1ccccc1)c1ccccc1OCC(O)CN1CCC(c2ccccc2)CC1 (stereo not shown),metabolic stability,"female mouse, liver microsomes","20 µM, pH 7.4",,scaled CLint,29.3 mL/min/kg
O=c1cc(-c2ccc(O)cc2)oc2c([C@@H]3O[C@H](CO)[C@@H](O)[C@H](O)[C@H]3O)c(O)cc(O)c12,mass spectrometry,Caco-2,"40 µM, 6 h",,Papp A→B,28.5 ×10⁻⁶ cm/s
CN[C@H](CC(C)C)C(=O)N[C@H]1C(=O)N[C@@H](CC(N)=O)C(=O)N[C@H]2C(=O)N[C@H]3C(=O)N[C@H](C(=O)N[C@H](C(=O)O)c4cc(O)cc(O)c4-c4cc3ccc4O)[C@H](O)c3ccc(c(Cl)c3)Oc3cc2cc(c3O[C@@H]2O[C@H](CO)[C@@H](O)[C@H](O)[C@H]2O[C@H]2C[C@](C)(N)[C@H](O)[C@H](C)O2)Oc2ccc(cc2Cl)[C@H]1O,,"pig, all compartments","intravenous infusion, 1000 mg, infusion 100 min, added: 2 µg/mL",,time to concentration,≤ 15 min
C[N+]1(CC(=O)OC2CCCCCCCCCCC2)CCCC1,metabolic stability,"male CD-1 mouse, liver microsomes","1 µM, pH 7.4",,microsomal CLint,368 µL/min/mg
O=c1ccn([C@@H]2O[C@H](CO)[C@@H](O)[C@H]2O)c(=O)[nH]1,,"male CD-1 mice, small intestine without content","intravenous, 1 mg/kg, 1 h",,share of tissue radioactivity,3.1%
COc1c(OCCCN2CCOCC2)ccc2c1N=C(NC(=O)c1cnc(N)nc1)N1CCN=C21,,"human patients, plasma","intravenous, 0.6 mg/kg 3 weeks on 1 week off, cycle 1 day 15, added: refametinib 30 mg twice daily oral",,AUC(0-25 h),1250 ng·h/mL
NC(=O)N1c2ccccc2C=Cc2ccccc21,shake-flask,polysorbate 80,37 °C,,thermodynamic solubility,34.6 ± 1.45 mg/g
CN(C)CCN1C(=O)c2ccccc2NC12C(=O)N(C)c1ccc(Br)cc12 (stereo not shown),shake flask,aqueous buffer,pH 7.4,,logD,1.6
O=C(C1CCCCC1)N1CC(=O)N2CCc3ccccc3C2C1 (stereo not shown),shake-flask,PEG400,37 °C,,thermodynamic solubility,28 ± 1.08 mg/g
CCCCCCCCC/C=C/C(=O)CCc1ccc(O)c(OC)c1,,"rat, small intestine site 4 contents","oral, dose not given, 2 h, β-glucuronidase treated",baseline: ingested amount,recovery,0.15%
acyl ghrelin (human),,"wild-type mice, pons and medulla","intravenous, dose not given, 10 min, vascular space corrected",,tissue/serum ratio,8.09 µL/g
COC1=CC(=O)C[C@@H](C)[C@]12Oc1c(Cl)c(OC)cc(OC)c1C2=O,shake-flask,polysorbate 80,37 °C,,thermodynamic solubility,8.13 ± 0.27 mg/g
COc1ccc2nc([S@@+]([O-])Cc3ncc(C)c(OC)c3C)[nH]c2c1,,human healthy,"40 mg, oropharyngeal pain",,adverse events,8%
Cn1c(-c2ccc(C(N)=O)cc2F)nnc1C(C)(C)Oc1c(F)cc(Cl)cc1F,,"young non-Japanese subjects, plasma","oral, 20 mg single dose, day 1",,AUC(0-inf) median,2840 ng·h/mL
Cc1cc(Nc2ncc(Cl)c(Nc3ccccc3S(=O)(=O)C(C)C)n2)c(OC(C)C)cc1C1CCNCC1,refers to: total drug,"human, enhancing tumour over plasma","oral, 450 mg/day, 23 to 25 h after dose 10",,Kp,55
CCCCCCCCCc1nc2cc(Cl)ccc2c(=O)n1N,,"rat, male, Sprague-Dawley, lung","intratracheal, 0.067 mg/kg",,fraction in epithelial lining,> 98%
CC(C)(Oc1ccc(C(=O)c2ccc(Cl)cc2)cc1)C(=O)O,shake-flask,Captex 355,37 °C,,thermodynamic solubility,1.97 ± 0.05 mg/g
Cc1nc2cccc(OCC(C)(C)C(=O)NC(C)C)c2c(N)c1C(=O)O,,"Sprague-Dawley rat, male, plasma","oral gavage, 100 mg/kg, day 7",,AUC(0-last),185 ± 15.3 ng·h/mL
C[C@]12CC[C@@H]3c4ccc(O)cc4CC[C@H]3[C@@H]1C[C@@H](O)[C@@H]2O,GC-MS,"breast cancer women on NSAI, serum","vaginal, 0.03 mg, 1 h, day 0",,maximum serum concentration,0.0188 ng/mL
COc1ccc(Cl)cc1C(=O)NCCc1ccc(S(=O)(=O)NC(=O)NC2CCCCC2)cc1,shake-flask,soybean oil,37 °C,,thermodynamic solubility,≤ 0.05 mg/g
CC(=O)O[C@@]12CO[C@@H]1C[C@H](O)[C@@]1(C)C(=O)[C@H](O)C3=C(C)[C@@H](OC(=O)[C@H](O)[C@@H](NC(=O)OC(C)(C)C)c4ccccc4)C[C@@](O)([C@@H](OC(=O)c4ccccc4)[C@H]21)C3(C)C,HPLC-MS/MS,rat plasma,storage and freeze-thaw,,stability,stable
O=C(O)c1cc(/N=N/c2ccc(S(=O)(=O)Nc3ccccn3)cc2)ccc1O,shake-flask,PEG400,37 °C,,thermodynamic solubility,11.8 ± 0.58 mg/g
CC(C)(C)NC(=O)[C@@H]1C[C@@H]2CCCC[C@@H]2CN1C[C@@H](O)[C@H](Cc1ccccc1)NC(=O)[C@H](CC(N)=O)NC(=O)c1ccc2ccccc2n1,equilibrium dialysis,"cellulose membrane, cell-free","pH 7.4, added: 0.1% w/w Pluronic P85",,effective permeability,36 ± 5 ×10⁻⁶ cm/s
CS(=O)(=O)n1cc2c(n1)CN([C@H]1CO[C@H](c3cc(F)ccc3F)[C@@H](N)C1)C2,,human male,oral,,QTc slope vs plasma concentration,0.3 ms/µM
CC(C)/N=c1\cc2n(-c3ccc(Cl)cc3)c3ccccc3nc-2cc1Nc1ccc(Cl)cc1,shake-flask,soybean oil,37 °C,,thermodynamic solubility,9.51 ± 0.21 mg/g
C/C=C/C=C/C=C\CC/C=C/C(=O)NCC(C)(C)O,,"rat, small intestine site 4 contents","oral, dose not given, 4 h, no β-glucuronidase treatment",baseline: ingested amount,recovery,0.02%

# Repeated from above:
Molecule,test,test system,setting,scale,endpoint,result
CC(C)(Oc1ccc(C(=O)c2ccc(Cl)cc2)cc1)C(=O)O,shake-flask,Captex 355,37 °C,,thermodynamic solubility,1.97 ± 0.05 mg/g
C[C@H](Oc1ccc(-c2nc(-c3ccc4[nH]cnc4c3)no2)cc1C(F)(F)F)C(F)(F)F,,"cynomolgus monkey, aneurysm model, plasma","0.1 mg/kg once daily, 8 h post-dose, 12 months dosing",,plasma concentration,23 ± 1.8 nM
COc1ccc2nc([S@@+]([O-])Cc3ncc(C)c(OC)c3C)[nH]c2c1,,human healthy,"40 mg, oropharyngeal pain",,adverse events,8%
Cn1c(-c2ccc(C(N)=O)cc2F)nnc1C(C)(C)Oc1c(F)cc(Cl)cc1F,,"young non-Japanese subjects, plasma","oral, 20 mg single dose, day 1",,AUC(0-inf) median,2840 ng·h/mL
CNc1nc(Nc2ccc(-n3cnc(C)n3)c(OC)c2)nc2c1CC[C@H]2c1ccc(F)cc1,,"human, plasma","oral, 50 mg, multiple doses, once daily",,Tmax,5 h
CS(=O)(=O)n1cc2c(n1)CN([C@H]1CO[C@H](c3cc(F)ccc3F)[C@@H](N)C1)C2,,human male,oral,,QTc slope vs plasma concentration,0.3 ms/µM
